Experimental data of several laboratories.
Each numbered part is a random draw from the data of one study; scales do not carry over between parts. Changes are numbered by the printed parent chain.

Series 1
Target: CCNB3, cyclin fold, Cln2 fusion (human)
Method: yeast growth competition, sequencing
Sample: yeast
Setting: weak parent motif
Baseline: not given
Reading: higher = stronger binding
Starting sequence: RB1 docking peptide (human); PKPLKKLRFDIEG
Variant | normalised enrichment score
PKPSKKLRFDIEG [L4S] | 0.0616
PKPLCKLRFDIEG [K5C] | 0.0174
PKPLKKLRFWIEG [D10W] | 0.0998
PKPLKGLRFDIEG [K6G] | 0.201
PKPLSKLRFDIEG [K5S] | 0.328
PKPLKKLRFDIEI [G13I] | 0.288
PKPLKKLRSDIEG [F9S] | -0.00763
PKPLKKLRFDIEA [G13A] | 0.2
PKPLKKLSFDIEG [R8S] | 0.00258

Series 2
Target: RNA binding protein fox-1 homolog 2, RRM domain, GST-SBP tag (RBFOX2, Homo sapiens, UniProt O43251-10, residues 100-194)
Method: RNA Bind-n-Seq
Form: RNA
Sample: in vitro
Tested at: 365 nM
Setting: natural RNA segment, single round, ends assumed
Baseline: no-protein control
Reading: higher = stronger binding
Constant ends, left off below: GGGAGUUCUACAGUCCGACGAUC … UGGAAUUCUCGGGUGCCAA
Construct (chain): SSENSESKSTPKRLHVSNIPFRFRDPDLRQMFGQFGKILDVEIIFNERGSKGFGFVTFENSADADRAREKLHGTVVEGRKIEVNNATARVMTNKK
Strand | RBNS enrichment (R)
AGUCCAGCCAUUUUCACCUCCCCUGGUCCAUGCUCAGGAAGUCUGGUCACCCUGGCAAACUGCACCUGACAUUGAGGUCCCUUUUCACCAAAGAUGCACAAGGUGUCCAU | 0.292
AUUUAGUGAAAUGCUGUUGCCCCAAAGUGAUGGUUGUGGGAUUUCUUACCGGUCAUAGGCCCCGGUGAGGAGCAGGGAAGCGCCAUUGUGAAAGAUUAAAGAAAGCACUU | 0.649
GACUCUAUAUAGCUGAUCAGUUUUUUCACCUGGAAGCAUUUGUUUCUACUUUGAUAUGACUGUUUUUCGGACAGUUUAUUUGUUGAGAGUGUGACCAAAAGUUACAUGUU | 0.427
AAGAGGAGGAAAGGGGACCAAAGGGAAGUGAGGUCCUAGAGCGUUGACACUGAGGGAAGUCCUAUCUGUCAGUCCUGACCACUUAAGCCAGGACCCCAUGCUUCCUUUAC | 0.948
CUGGGCUGCAUCUCAGCCCCACCUGCAUGGUAUCCAGCUCCCAUCCACUUCUCACCCUUCUUUCCUCCUGACCUUGGUCAGCAGUGAUGACCUCCAACUCUCACCCACCC | 2.91
GGAUCCUCCCAGCCCCCAGCCCGCCACCCUUCCAGCACUCCUCUCUAGAACCGACGACCACACACCGCCCCCGUGUUCCACCCAGCAAGCUCCGCUGGGAGACCCAGCGC | 0.776
UUCCCUCUCAGAGCCUGUGCCCGAAUCUUUAAUGUUCUCUGGGUGAAAGGUCCUGGGGAGAGCUUCGGGGCUCCCCCGAUGCCCAUCUCCAAUGCCAAUUCUUUGGUUUC | 0.243
CAUUUUUACACUUUAGGAGUAAUCUGGAAUUCAAAAGGGAAUGAGAGCUUACUCCCUUCCACAGUUUCCUCCAAGCCCUGUCCUGAGAAUUCUGACCCUCGACACCUGAG | 0.299

Series 3
Target: MAFK, bZIP domain (human)
Method: DHFR protein complementation
Sample: yeast
Setting: single substitutions, most at no-binding floor
Baseline: wild-type JUN-FOS pair
Reading: higher = stronger binding
Starting sequence: JUN, bZIP domain (human); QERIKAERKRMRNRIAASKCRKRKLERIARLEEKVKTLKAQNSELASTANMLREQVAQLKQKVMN; partner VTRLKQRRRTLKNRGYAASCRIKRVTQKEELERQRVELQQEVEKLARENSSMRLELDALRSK
Variant | binding fitness [natural log]
A57V | -1.5
A46Q | -1.39
A57K | -1.42
N42Q | -1.39

Other studies, line by line
Substance | target | test | test system | setting | how to read | measurement | value
PhoQ, residues 284 288 289 292 302 303 SMYGEC | PhoP, residues 12 14 15 18 19 LYFRQ (Escherichia coli, UniProt P23836) | Sort-seq, measured: YFP reporter | E. coli | PhoQ-PhoP variant library, added: 10 µM Mg2+ | baseline: high Mg2+ state, higher = stronger signaling | fold induction | 8.84

Some of these lines once more (series 1):
Variant | normalised enrichment score
PKPLKKLRFDIEA [G13A] | 0.2
PKPLKKLSFDIEG [R8S] | 0.00258
PKPLSKLRFDIEG [K5S] | 0.328
PKPLKKLRSDIEG [F9S] | -0.00763
